# Measured values pooled from the literature.
# Numbered parts are unrelated; each lists some results of a single study.

# Set 1 — method: protein binding microarray; molecule type: double-stranded DNA, one strand shown; matrix: in vitro; concentration: not given; reference: not given; direction: higher = stronger binding
# Target: Histone acetyltransferase KAT6A, winged helix 1, GST fusion (KAT6A, Homo sapiens, UniProt Q92794, residues 1-85)
# Setting: 8-mer, flanks averaged, mean of 2 arrays, mostly near background
# Residues (chain): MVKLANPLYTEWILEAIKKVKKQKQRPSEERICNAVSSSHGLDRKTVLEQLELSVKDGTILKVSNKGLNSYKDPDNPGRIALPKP
Strand,E-score
AGACGCGA,0.0531
CAGAAAAC,-0.101
GCCTCAAC,-0.193
CTCACGAA,-0.0545
CCTCTGCG,0.00703
ACCGCTTA,0.171
ACCCAGCG,0.0923
AACCTAAT,0.0697
TATGTCAA,-0.0681
CCAAACAC,-0.0233
CTATCTTC,-0.236
AATAAAAG,-0.0536
TCCGTTCA,0.0311
CGTGTGTA,0.0409
GCTCGATA,-0.0539
ACAAGACC,-0.0399
AGATCGTA,-0.158

# Set 2 — method: universal PBM; molecule type: double-stranded DNA, one strand shown; matrix: in vitro; concentration: not given; direction: higher = stronger binding
# Target: Sal-like protein 4, full length isoform B (SALL4, Homo sapiens, UniProt Q9UJQ4-2, residues 1-616)
# Setting: 8-mer, flanks averaged, mean of replicates
# Residues (chain): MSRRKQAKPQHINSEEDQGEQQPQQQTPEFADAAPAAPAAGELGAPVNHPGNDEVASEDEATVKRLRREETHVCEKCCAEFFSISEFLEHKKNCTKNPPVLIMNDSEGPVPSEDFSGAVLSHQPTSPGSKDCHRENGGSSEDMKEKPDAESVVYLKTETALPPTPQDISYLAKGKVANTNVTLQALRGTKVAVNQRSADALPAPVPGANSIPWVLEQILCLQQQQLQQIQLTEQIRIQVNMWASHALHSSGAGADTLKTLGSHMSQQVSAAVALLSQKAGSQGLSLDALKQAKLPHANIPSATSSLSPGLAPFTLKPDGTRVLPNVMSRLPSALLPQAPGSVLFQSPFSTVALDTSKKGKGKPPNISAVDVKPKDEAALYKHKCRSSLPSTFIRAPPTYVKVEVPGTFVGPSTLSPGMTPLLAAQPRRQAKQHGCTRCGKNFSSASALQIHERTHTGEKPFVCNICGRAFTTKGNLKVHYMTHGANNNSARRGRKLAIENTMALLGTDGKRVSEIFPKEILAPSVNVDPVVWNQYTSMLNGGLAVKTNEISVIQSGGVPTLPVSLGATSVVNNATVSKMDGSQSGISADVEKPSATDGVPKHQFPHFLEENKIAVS
Strand,E-score
TCAGCCGA,-0.194
CCCCGAGG,-0.373
TAGCCTAA,0.0412
CTGACGAC,-0.0772
TGAACCCA,-0.126
GCACGCTA,-0.16
ATAATTGC,0.344
CCGAAAGA,-0.168
ATCGGTGC,-0.077
CGTGCTCC,-0.23
AGGCGGCC,-0.301
GTACTTTA,0.235
CAACTACC,-0.0998
CAGACAAC,-0.0683
GTATAGTA,0.194
AATGGAGC,-0.0456
CCCTAATA,0.311
ATAGCTCG,-0.0743
CCTTATCC,-0.112
CGCTTCCG,-0.172
AGCGCTAC,-0.0208
CGGGGCAG,-0.339
CCGAGCGG,-0.357
CGCTTAGC,-0.328
CTCGCATA,0.079

# Set 3 — method: EMSA with sequencing; molecule type: double-stranded DNA, one strand shown; matrix: in vitro; concentration: 10 and 20 nM; reference: negative control set to 0; direction: higher = stronger binding
# Target: Hepatocyte nuclear factor 3-alpha (Foxa1, Mus musculus, UniProt P35582, residues 1-468, full length assumed)
# UniProt P35582, sequence (whole entry, looked up): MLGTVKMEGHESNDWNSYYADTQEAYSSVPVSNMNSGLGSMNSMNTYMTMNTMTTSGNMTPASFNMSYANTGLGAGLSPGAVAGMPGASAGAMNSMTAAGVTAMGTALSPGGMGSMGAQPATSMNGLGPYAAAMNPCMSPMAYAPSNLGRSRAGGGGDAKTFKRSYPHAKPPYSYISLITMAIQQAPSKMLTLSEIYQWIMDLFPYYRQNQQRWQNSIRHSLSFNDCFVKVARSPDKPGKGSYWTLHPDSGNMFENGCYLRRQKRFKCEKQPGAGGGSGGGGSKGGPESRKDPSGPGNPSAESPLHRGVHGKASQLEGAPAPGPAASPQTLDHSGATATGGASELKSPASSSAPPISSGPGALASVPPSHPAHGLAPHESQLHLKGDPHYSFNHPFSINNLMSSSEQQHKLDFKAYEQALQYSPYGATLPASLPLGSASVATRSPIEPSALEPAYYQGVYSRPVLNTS
# Setting: whole designed probe, mean of two concentrations, ends assumed
# Shared flanks, not repeated: GTGAGCGGTGCCCATTGATGGGGAAC … TTTCACTGGGATCGTGGGGAC
Strand,normalised bound fraction [ratio]
ATCTTCCCCCTCTTCCTTGCCCCACCAGCTCACCTTCCCGGGTTATTTGCAGATAGGAAAATAAATAAAGCCGGCATGATGAATCATGCTTCACGCGCATACTGCTGTTTGCTCTGGATCTAACATGGTCCTTTGGCGACGCCAGGCTCCGGGAGAGCAAAGCACCGTGTCAGGGCCATGATCCGGGGTGGCC,0.367
TGTCCCCAAACTAAATTAACAACTTTTTCCAAGACAAGTTCCAACACCAATTCATCCCCCAACTCCCCCGCCTCTTTTTTTTTTTTTTTTTAAAGTAAACAAGGATACCTTCATTCTCTCAGGAAAAAGGTGACATCAAATTACCTTCTCTTTTTTCTTCTCAATCTTCCAAAACCTTTTCCCAAAGTCATTT,0.306
AAAAAAGAAATACATTGAGTCTACTGACAAGATATCCACAACATGTTAAAAAGCCAAGTAGCAAAATATAGTATGCAATCTAATACTACGTAATGTAATCTTGCAGATGGTACCTATTTAAGTGTATTTATCTTTCCAAACACACCACATATGTTTATACATGTGTGTGAAAGGGTATACATACACTCAACAG,0.249
ACATTCACTCACCATTCACTTACTGACTCACCTAGAGCAACTTTCAGTCCTGCAAGCTCCATTCATGGTAAATGCCCTGTACAGGTGTACCATTGTTTACTTTTTATACCTTTTTTTTTTTTTTTTTTTGAGATGGAGTCTTGCTCTTGTCACCCAGTCTGGAGTGCAATGGTACAATCTTGGCTCACTGCAA,0.469
TTGAATGCAGATTTCATAATTAAAATTGTTAATTAAATAATAATTAAAAGTGTTTTAATAATAAAAGTCCACAATTAAAATTATTTTTATGCCATGTTTACTTATTATTTATTAAACATGCATTGAATAATTGCAATATATCAAAGAGTTTTCTGTTAGTGTGAGATATAAAACTATAATGTTCCAGTCCTCA,0.312
ATCTTCCCCCTCTTCCTTGCCCCACCAGCTCACCTTCCCGGGTATCTGCAAATAAGGAAATTAATATAAGCCGGCATTCGTTAACCCTCTTCTGGCGCAAACTGCTGTTTACTTTGGATGAATCATGGTCCTTTGGCGACGCCAGGCTCCGGGAGAGCAAAGCACCGTGTCAGGGCCATGATCCGGGGTGGCC,0.38
TTGAGTTTTTTCCACTTTTTGACTACTATGAATAATGCTTCTGTAAACATTCTTGTACAAGTTTCTTTGGGAAATATTTTTTCAGTTCTCCTGTGTGTACTTAGGAGTTGAATTGCTGAGTGTTGTGGTAACTATGTTTAGCTTTTTGAGGAACTGCCAAACTATTTTCCAAAATGACTGCACCATTTTACAA,0.354
ATCTTCCCCCTCTTCCTTGCCCCACCAGCTCACCTTCCCGGGTTATTTGCACAAAGGAAAATAAATAAAGCCGGCATTCGTTAACCCTCTTCACGCGCATACTGCTGTTTGCTCTGCATGAATCATGGTCCTTACGCGAGGCGTGGCTCCGGGAGAGCAAAGCACCGTGTCAGGCGCATGATCCGGGCTCGCC,0.382

# Set 4 — method: protein-binding microarray; molecule type: double-stranded DNA, one strand shown; matrix: in vitro; concentration: not given; direction: higher = stronger binding
# Target: Protein C-ets-1 (ETS1, Homo sapiens, UniProt P14921, residues 1-441, full length assumed)
# Setting: k-mer, scored over probes, only values ≥0.25
# Target sequence (chain): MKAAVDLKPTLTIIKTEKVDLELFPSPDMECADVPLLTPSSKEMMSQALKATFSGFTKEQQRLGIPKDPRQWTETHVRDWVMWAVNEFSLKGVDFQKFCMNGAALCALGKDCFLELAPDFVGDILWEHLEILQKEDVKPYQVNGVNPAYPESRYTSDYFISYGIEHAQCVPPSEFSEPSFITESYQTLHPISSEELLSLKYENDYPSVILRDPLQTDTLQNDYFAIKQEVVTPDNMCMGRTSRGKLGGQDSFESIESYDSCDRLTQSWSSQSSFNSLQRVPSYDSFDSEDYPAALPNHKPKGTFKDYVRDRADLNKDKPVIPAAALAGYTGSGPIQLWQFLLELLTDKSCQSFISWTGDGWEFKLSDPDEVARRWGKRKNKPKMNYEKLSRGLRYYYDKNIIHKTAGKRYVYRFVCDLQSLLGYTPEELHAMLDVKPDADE
Strand,E-score
CAATTCCG,0.305
CGTCCGCA,0.345
AAGGGAAG,0.367
GCCCGGAA,0.463
AGATCCGC,0.253
CTTGCGGA,0.267
CCGGTCAG,0.31
AGCGGGGA,0.287
ACGGAAAG,0.322
CTAGTTCC,0.33
GAACCGGA,0.468

# Set 5 — method: RNA Bind-n-Seq; molecule type: RNA; matrix: in vitro; concentration: 1 µM; setting: whole 134-nt RNA, ends assumed; with: 150 mM KCl; reference: input library; direction: higher = stronger binding
# Target: Ras GTPase-activating protein-binding protein 1, C-terminal RGG region (G3BP1, Homo sapiens, UniProt Q13283)
# UniProt Q13283, sequence (whole entry, looked up): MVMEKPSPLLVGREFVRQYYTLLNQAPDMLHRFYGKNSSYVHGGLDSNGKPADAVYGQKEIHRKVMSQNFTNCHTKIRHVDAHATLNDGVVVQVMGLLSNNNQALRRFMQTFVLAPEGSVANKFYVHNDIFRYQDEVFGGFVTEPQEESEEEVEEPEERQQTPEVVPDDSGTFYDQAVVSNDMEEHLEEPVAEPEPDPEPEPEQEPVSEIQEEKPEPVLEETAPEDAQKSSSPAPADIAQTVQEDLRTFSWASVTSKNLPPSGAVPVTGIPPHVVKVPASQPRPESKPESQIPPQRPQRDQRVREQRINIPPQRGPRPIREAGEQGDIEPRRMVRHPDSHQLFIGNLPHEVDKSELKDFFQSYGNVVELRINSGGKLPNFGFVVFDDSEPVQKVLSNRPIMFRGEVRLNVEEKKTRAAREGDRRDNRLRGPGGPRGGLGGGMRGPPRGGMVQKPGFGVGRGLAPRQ
# Shared flanks, not repeated: GGGAGUUCUACAGUCCGACGAUC … UGGAAUUCUCGGGUGUCAAGG
Strand,log2 enrichment
GUCCUGUGCUACACAUCGUAUGUACCGAAUCGGGGUUUGGGGAAAAAAAGGGGAGGGGAAAGUAUUAUGUUACGCCGUUCGGAUCUGCAC,1.9
UCCUGUGCUACACAUCGUAUGUACCGAAUCGGGAAAAAAGGAAAAAAGGGAAAAAAGGGGAAAGUAUUAUGUUACGCCGUUCGGAUCUGC,-1.56
UGAAAUGUUUUUUUCUCUGUCUUCUUUCAGGUCUUUGUUGAGUAUGCAAAUGCUGGUGAUUCCAAAGCUGCGCAGAAAUUACUGACUGGA,-1.54
AAGUCCUGUGCUACACAUCGUAUGUACCGAAUCGGUUUUUGGUUUUUUUGGUUUGGAAAGUAUUAUGUUACGCCGUUCGGAUCUGCACUU,-1.67
UAACUUUAGAGGAGGAUCUGAUGGAUAUGGCAGUGGACGUGGAUUGGGGGAUGGCUAUAAUGGGUAUGGAGGAGGACCUGGAGGUGGCAA,-1.32
AGUCCUGUGCUACACAUCGUAUGUACCGAAUCGGUUUGGUUUUUUUGGUUUUUUUGGAAAGUAUUAUGUUACGCCGUUCGGAUCUGCACU,-1.78
GCAGGAAGUAAAAACAAAAAGAAAUGCUUCGGAUAGUGGCAGGGGUGGGGGUUGCUAAGGAAAGGGUGGGAUGGGAGUGGGUAAAGAGUU,1.76
UCCUCAAGUCCUGUGCUACACAUCGUAUGUACCGAAUCGGAGGAAAGGAGGAAAGUAUUAUGUUACGCCGUUCGGAUCUGCACUUCCAGC,-1.35
CACAGACAACACGCACCCACACAGACACAGAGGGAAGGGGUUGGGAUGGGGACAGGGUGCACAGCAGGGCGAAAUAGGACCCCAGCCCCU,-0.115

# Set 6 — method: RNA Bind-n-Seq; molecule type: RNA; matrix: in vitro; concentration: 100 nM; reference: input RNA pool; direction: higher = stronger binding
# Target: RING finger protein unkempt homolog, zinc fingers 1-6, SBP tag (UNK, Homo sapiens, UniProt Q9C0B0, residues 30-357)
# UniProt Q9C0B0, sequence (30-357, looked up): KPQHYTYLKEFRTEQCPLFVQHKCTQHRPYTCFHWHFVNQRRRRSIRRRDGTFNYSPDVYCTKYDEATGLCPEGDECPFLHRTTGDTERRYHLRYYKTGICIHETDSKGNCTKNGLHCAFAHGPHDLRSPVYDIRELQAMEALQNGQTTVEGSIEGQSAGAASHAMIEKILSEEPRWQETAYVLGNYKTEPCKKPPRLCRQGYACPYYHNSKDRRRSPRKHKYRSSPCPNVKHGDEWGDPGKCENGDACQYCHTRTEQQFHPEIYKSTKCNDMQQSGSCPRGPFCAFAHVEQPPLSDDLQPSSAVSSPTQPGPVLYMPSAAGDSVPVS
# Setting: RNA with constant flanks, vertebrate orthologous sites, ends assumed
# Shared flanks, not repeated: GGGAGUUCUACAGUCCGACGAUC … CAACAGAGGAUUGAGCAUCA
Strand,bound/input enrichment
AGUAGUUUCAAGCUUGUUUGCACAGUUCUUUUUUUCCAUUGGAAAUGGAAUUCAUUGCCUUAGGUCUUUUAAAAUAGUGUAUUAUCGUUGGGGCUGGCUCUGUGCUUGAAAACCAGUUUA,2.35 ratio
AGGGAGAAGAGUUCACAAACUCAAAGGGAAACUAUUAAAGAAUUCCUAAUAGUUAAAAGCUAGGAAAGAUUAGGACAACUUUACAAAUGAGCAAUUAAAAAGAAAAAGGCUACGGGAACC,1.07 ratio
UCUGUGUAGGAAUUAGAGUGGGUUCUCCCACUCGUCCUGUCCCAAGGAAGAAAGCUCACAUAGGUUCUUUACACACCUGAUUAUGCUGUUCUGUUUCUGUUUUCUAUUUUUACAUAUACA,0.618 ratio
UGAUCGCCACGUGGGACAACUUGACAACAACGAGUGCGAAGUCAUUUCCGUAGUCACAGGAGGUAGCUUAGGGCAGAGUCGCCAUGAUUCAACUCGUGCAAACUUUGUAAAUGUACAAUA,0.404 ratio
AGACUUAUAUUGUGGCAUAUAGUCAACAUGGAAGUAGACCAGCUCUGCCGAUUUGAAAUUUAGAUUUUUUUAAAAUUAUGUACUGGGGACAGGUCUUUGUCGCUUUACAUUGCUUCCUAG,3.56 ratio
UUACAGUCAUUGAUGGACUCUAUUUUUUUAUUAUUACUUGGAACUUGGUCGUUUUUAUACUAGCAAGAUGUCUUGUUUUAAUUUGUGUUUUUUGGGGGGGAGGGAGUGAAUUUGCUCAUU,1.53 ratio
GUGUUUUGUACAGGGCAUCACCCUCUGUACGAGUUUGUGGUUAUAAAAUAAUUAGUAAAACAGCUUACAUUUGUAUUUAUUUUCUAGUCCACACUUCUGUACCCGUUUUUUUCUCCCUUA,0.503 ratio
AUUCAGACCUGUGGUACCAUGGCCUCAUGUUGAAGGAGUAGAAGUGGACUUAGAGUCUAUUAGAAGAAAAAACAAGGCCAAAAAUGAACAAGAGCACCGUGCUGGUGGAGAUUCCCAGAA,0.384 ratio
